Published values of several laboratories.
Each line is one published result; not all experiments were run side by side. ± gives the spread as reported.

Compound | assay | test system | setting | how to read | quantity | result
CC(C)C[C@H](NC(=O)[C@H](CCCCN)NC(=O)[C@H](CCC(=O)O)NC(=O)[C@H](C)NC(=O)[C@@H](NC(=O)[C@H](CCCCN)NC(=O)[C@H](CC(=O)O)NC(=O)[C@H](Cc1ccc(O)cc1)NC(=O)[C@H](Cc1ccccc1)NC(=O)[C@H](C)NC(=O)[C@H](CCCCN)NC(=O)[C@H](CC(C)C)NC(=O)[C@H](Cc1c[nH]c2ccccc12)NC(=O)[C@@H](N)CC(=O)O)C(C)C)C(=O)N[C@@H](CCCCN)C(=O)N[C@@H](CCC(=O)O)C(=O)N[C@@H](C)C(=O)N[C@@H](Cc1ccccc1)C(=O)N1CCC[C@H]1C(=O)N[C@@H](CC(=O)O)C(=O)N[C@@H](Cc1c[nH]c2ccccc12)C(=O)N[C@@H](C)C(=O)N[C@@H](CCCCN)C(=O)N[C@@H](C)C(=O)N[C@@H](C)C(=O)N[C@@H](Cc1ccc(O)cc1)C(=O)N[C@@H](CC(=O)O)C(=O)N[C@@H](CCCCN)C(=O)N[C@@H](C)C(=O)N[C@@H](C)C(=O)N[C@@H](CCC(=O)O)C(=O)N[C@@H](CCCCN)C(=O)N[C@@H](C)C(=O)N[C@@H](CCCCN)C(=O)N[C@@H](CCC(=O)O)C(=O)N[C@@H](C)C(=O)N[C@@H](C)C(=O)O | – | cynomolgus monkey female, plasma | intravenous infusion, 75 mg/kg, day 1, 30 min infusion | – | volume of distribution at steady state | 0.044 L/kg
CSCC[C@@H]1NC(=O)[C@@H]2CSSC[C@H](NC(=O)[C@H](CO)NC(=O)[C@H](C)N)C(=O)N[C@@H](CCCNC(=N)N)C(=O)N[C@@H]([C@@H](C)O)C(=O)N3CCC[C@H]3C(=O)N[C@@H](CCCCN)C(=O)N[C@@H](CC(=O)O)C(=O)N[C@H]3CSSC[C@H](NC(=O)[C@H](CCCCN)NC(=O)[C@H](CCCNC(=N)N)NC(=O)[C@H](CC(N)=O)NC1=O)C(=O)N[C@@H](CCCCN)C(=O)N[C@H]1CSSC[C@H](NC(=O)[C@@H]4CCCN4C(=O)[C@H](CC(=O)O)NC(=O)[C@H](C)NC3=O)C(=O)N[C@@H](C)C(=O)N[C@@H](CCCCN)C(=O)N[C@@H](CCC(=O)O)C(=O)N[C@@H]([C@@H](C)O)C(=O)NCC(=O)N[C@@H](CSSC[C@@H](C(N)=O)NC(=O)[C@H](CCCNC(=N)N)NC(=O)[C@H](CC(N)=O)NC1=O)C(=O)N1CCC[C@H]1C(=O)N[C@@H](Cc1ccc(O)cc1)C(=O)NCC(=O)N[C@@H](CCCCN)C(=O)N2 | – | DA rat, pristane-induced arthritis, serum | subcutaneous, 0.1 mg/kg every other day, end of 21-day trial | – | indirect bilirubin | 0.02 mg/dL
COc1ccc(C)cc1NC(=O)OC1CC2CCCC(C1)N2Cc1ccc(CC[18F])cc1 (stereo not shown) | – | BALB/c mice, EMT6 tumour | 5 min | baseline: tumour over muscle | tumour to tissue ratio | 0.3
C[C@@H]1CC[C@H]2[C@@H](C)CO[C@@H]3O[C@@]4(C)CC[C@@H]1[C@]32OO4 | item: compound | rat, plasma | 800 ng/mL spiked, 30 days, long-term storage at -80 °C | – | measured concentration | 827 ± 35.2 ng/mL
CC[C@@H]1C[C@]1(NC(=O)[C@@H]1C[C@@]2(CN1C(=O)[C@@H](NC(=O)[C@@H](NC(=O)[C@@H]1CCCCN1C(C)C)C1CCCCC1)C(C)(C)C)C(C)(C)C21CCC1)C(=O)NS(=O)(=O)N1CCCC1 | item: Nausea | human | oral, 50 mg, simultaneous dosing on day 2, with: ritonavir 100 mg | – | subjects with adverse event | 0%
CC(C)C[C@@H](N)C(=O)NCC(=O)N[C@H](C)C(=O)N[C@H](CO)C(=O)N[C@H](Cc1c[nH]c2ccccc12)C(=O)N[C@H](Cc1c[nH]cn1)C(=O)N[C@H](CCCNC(=N)N)C(=O)N1CCC[C@@H]1C(=O)N[C@H](CC(=O)O)C(=O)N[C@H](CCCCN)C(=O)N[C@H](CS)C(=O)N[C@H](CS)C(=O)N[C@H](CC(C)C)C(=O)NCC(=O)N[C@H](Cc1ccc(O)cc1)C(=O)N[C@H](CCC(N)=O)C(=O)N[C@H](CCCCN)C(=O)N[C@H](CCCNC(=N)N)C(=O)N1CCC[C@@H]1C(=O)N[C@H](CC(C)C)C(=O)N1CCC[C@@H]1C(N)=O | LC-MS/MS | rat plasma | 500 ng/mL, -80 to 25 °C, 3 freeze-thaw cycles | baseline: nominal | accuracy | 95.3%
CC[C@@H](C)[C@H](NC(=O)[C@H](C)NC(=O)[C@H](CCCCN)NC(=O)[C@H](CC(C)C)NC(=O)[C@H](C)NC(=O)[C@@H](NC(=O)[C@H](Cc1c[nH]cn1)NC(=O)[C@H](CC(C)C)NC(=O)[C@@H](NC(=O)[C@@H](NC(=O)[C@H](CCCCN)NC(=O)[C@H](CCCCN)NC(=O)[C@H](C)NC(=O)[C@H](CO)NC(=O)[C@H](CCCCN)NC(=O)[C@H](Cc1ccccc1)NC(=O)[C@@H](NC(=O)[C@H](CCCCN)NC(=O)[C@H](CC(C)C)NC(=O)[C@H](Cc1ccccc1)NC(=O)[C@H](CO)NC(=O)[C@H](CCCCN)NC(=O)[C@H](Cc1c[nH]c2ccccc12)NC(=O)[C@H](CCCCN)NC(C)=O)[C@@H](C)O)[C@@H](C)O)C(C)C)[C@@H](C)O)C(=O)N[C@@H](CO)C(=O)N[C@@H](CO)C(N)=O | circular dichroism at 222 nm | KCl phosphate buffer | 75 µM, pH 7.4, 30 °C | – | mean residue ellipticity | -2950 deg cm² dmol⁻¹
COC(=O)C[C@](O)(CCCC(C)(C)OC(C)=O)C(=O)O[C@@H]1C(OC)=C[C@]23CCCN2CCc2cc4c(cc2[C@H]13)OCO4 | – | CD1 mouse, kidney | subcutaneous, 1 mg/kg, 8 h, below quantification limit 1.00 ng/mL | – | tissue concentration | not detected
COc1cc(-c2cncc(-c3ccc(N4CCN([11CH3])CC4)cc3)c2C)cc(OC)c1OC | PET | Sprague-Dawley rat male, brain pons | intravenous | – | peak SUV | 2 ± 0.3
CC(=O)[O][Cu+].CN1CCN2CCN(C)CCN(CC1)CC2 | cyclic voltammetry, item: Cu(II)/Cu(III) | acetonitrile | 1 mM, copper acetate complex | baseline: SHE | oxidation potential | 1.42 V

A few entries again:
Compound | assay | test system | setting | how to read | quantity | result
CC(=O)[O][Cu+].CN1CCN2CCN(C)CCN(CC1)CC2 | cyclic voltammetry, item: Cu(II)/Cu(III) | acetonitrile | 1 mM, copper acetate complex | baseline: SHE | oxidation potential | 1.42 V
